Experimental data gathered from unrelated publications.
Protocols differ between the studies behind these lines. “And” joins repeats or separate records; there may be more than shown. ± marks the error that the study gave.
MAL12: Alpha-glucosidase MAL12 (MAL12, Saccharomyces cerevisiae S288c, UniProt P53341)
Sequence of UniProt P53341 (whole entry, looked up): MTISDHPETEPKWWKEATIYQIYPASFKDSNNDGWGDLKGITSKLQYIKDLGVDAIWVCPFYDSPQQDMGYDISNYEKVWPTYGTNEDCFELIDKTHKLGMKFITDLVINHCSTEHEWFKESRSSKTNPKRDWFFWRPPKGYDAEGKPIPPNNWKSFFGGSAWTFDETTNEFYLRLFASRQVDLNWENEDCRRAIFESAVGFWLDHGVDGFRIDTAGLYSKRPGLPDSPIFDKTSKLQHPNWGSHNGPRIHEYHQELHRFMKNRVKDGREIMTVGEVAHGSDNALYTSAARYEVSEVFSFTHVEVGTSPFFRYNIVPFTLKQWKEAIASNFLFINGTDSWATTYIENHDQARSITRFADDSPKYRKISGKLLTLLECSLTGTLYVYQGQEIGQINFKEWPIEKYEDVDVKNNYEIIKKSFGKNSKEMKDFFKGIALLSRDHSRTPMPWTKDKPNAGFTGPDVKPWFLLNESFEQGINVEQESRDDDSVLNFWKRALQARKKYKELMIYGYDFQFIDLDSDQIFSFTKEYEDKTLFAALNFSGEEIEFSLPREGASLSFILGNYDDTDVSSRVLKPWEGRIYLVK
Chrna7: Neuronal acetylcholine receptor subunit alpha-7 (Chrna7, Rattus norvegicus, UniProt Q05941)
Sequence of UniProt Q05941 (whole entry, looked up): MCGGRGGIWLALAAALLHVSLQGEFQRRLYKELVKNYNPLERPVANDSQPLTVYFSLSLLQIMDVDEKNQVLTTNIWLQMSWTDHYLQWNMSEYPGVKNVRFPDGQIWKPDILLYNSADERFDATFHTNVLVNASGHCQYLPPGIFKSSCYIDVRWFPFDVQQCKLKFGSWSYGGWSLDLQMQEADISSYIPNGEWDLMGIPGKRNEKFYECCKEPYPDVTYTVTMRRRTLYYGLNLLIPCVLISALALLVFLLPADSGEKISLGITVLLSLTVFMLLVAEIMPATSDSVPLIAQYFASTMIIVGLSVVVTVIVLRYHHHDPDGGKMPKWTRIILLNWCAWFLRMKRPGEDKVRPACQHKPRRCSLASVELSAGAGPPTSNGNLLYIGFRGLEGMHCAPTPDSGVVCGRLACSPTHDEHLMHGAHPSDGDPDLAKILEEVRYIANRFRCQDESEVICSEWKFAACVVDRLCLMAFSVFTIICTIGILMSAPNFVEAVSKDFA
MAP3K7 with TAB1: Mitogen-activated protein kinase kinase kinase 7, with TAB1 (MAP3K7, Homo sapiens, UniProt O43318)
Sequence of UniProt O43318 (whole entry, looked up): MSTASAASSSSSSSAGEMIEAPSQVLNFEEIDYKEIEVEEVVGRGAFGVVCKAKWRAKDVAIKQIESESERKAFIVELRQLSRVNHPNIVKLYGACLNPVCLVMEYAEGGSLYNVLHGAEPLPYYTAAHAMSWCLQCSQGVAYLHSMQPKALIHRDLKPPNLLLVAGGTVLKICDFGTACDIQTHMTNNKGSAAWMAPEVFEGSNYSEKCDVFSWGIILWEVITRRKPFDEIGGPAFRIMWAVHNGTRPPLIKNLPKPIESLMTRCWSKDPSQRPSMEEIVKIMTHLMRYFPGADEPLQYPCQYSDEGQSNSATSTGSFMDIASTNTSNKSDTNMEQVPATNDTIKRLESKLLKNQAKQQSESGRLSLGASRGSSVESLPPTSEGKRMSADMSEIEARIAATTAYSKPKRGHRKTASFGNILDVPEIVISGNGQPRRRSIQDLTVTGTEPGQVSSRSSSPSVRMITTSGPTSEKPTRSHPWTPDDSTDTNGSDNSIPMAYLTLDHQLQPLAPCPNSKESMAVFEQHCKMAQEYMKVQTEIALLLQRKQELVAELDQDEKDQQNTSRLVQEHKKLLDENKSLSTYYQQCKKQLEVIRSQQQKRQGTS
Sequence of UniProt P07237 (whole entry, looked up): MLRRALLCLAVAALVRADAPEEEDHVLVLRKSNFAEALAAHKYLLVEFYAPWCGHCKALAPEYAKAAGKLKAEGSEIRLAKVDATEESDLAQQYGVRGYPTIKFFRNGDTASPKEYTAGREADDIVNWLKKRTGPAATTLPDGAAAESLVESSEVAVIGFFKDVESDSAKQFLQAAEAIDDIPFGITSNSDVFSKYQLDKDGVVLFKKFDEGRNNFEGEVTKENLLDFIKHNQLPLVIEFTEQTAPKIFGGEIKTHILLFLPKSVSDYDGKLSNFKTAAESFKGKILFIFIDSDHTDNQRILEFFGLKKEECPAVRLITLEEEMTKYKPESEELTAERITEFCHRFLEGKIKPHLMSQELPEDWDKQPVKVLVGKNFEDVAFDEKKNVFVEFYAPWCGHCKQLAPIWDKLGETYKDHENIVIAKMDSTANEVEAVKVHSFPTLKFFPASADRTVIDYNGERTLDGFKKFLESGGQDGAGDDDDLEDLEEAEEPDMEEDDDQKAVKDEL
Sequence of UniProt P17787 (whole entry, looked up): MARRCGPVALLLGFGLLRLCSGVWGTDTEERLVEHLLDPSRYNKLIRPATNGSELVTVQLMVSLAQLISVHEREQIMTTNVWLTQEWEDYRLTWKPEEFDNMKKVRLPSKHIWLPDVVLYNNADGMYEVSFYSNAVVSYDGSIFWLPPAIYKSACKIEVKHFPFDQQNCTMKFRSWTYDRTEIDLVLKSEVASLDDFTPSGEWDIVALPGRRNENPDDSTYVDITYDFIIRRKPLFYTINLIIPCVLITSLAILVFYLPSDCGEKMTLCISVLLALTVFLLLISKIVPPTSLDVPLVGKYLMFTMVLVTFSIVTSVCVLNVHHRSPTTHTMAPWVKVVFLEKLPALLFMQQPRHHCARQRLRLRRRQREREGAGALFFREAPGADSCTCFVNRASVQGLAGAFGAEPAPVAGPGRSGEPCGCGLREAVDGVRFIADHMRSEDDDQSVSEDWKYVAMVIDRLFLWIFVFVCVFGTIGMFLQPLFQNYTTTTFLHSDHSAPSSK
Sequence of UniProt P49759 (whole entry, looked up): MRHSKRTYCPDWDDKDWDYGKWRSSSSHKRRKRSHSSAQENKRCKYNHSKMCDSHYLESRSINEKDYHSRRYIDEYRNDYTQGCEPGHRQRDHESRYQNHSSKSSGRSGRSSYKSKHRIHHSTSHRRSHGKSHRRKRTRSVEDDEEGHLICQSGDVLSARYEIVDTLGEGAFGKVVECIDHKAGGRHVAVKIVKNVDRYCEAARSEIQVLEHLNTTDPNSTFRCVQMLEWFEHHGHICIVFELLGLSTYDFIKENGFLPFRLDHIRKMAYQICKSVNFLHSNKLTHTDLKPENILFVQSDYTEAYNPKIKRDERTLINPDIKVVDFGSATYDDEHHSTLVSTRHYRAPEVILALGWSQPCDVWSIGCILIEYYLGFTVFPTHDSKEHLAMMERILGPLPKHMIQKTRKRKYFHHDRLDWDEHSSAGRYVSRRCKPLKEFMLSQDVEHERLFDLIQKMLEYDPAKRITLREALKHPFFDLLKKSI
Sequence of UniProt P18825 (whole entry, looked up): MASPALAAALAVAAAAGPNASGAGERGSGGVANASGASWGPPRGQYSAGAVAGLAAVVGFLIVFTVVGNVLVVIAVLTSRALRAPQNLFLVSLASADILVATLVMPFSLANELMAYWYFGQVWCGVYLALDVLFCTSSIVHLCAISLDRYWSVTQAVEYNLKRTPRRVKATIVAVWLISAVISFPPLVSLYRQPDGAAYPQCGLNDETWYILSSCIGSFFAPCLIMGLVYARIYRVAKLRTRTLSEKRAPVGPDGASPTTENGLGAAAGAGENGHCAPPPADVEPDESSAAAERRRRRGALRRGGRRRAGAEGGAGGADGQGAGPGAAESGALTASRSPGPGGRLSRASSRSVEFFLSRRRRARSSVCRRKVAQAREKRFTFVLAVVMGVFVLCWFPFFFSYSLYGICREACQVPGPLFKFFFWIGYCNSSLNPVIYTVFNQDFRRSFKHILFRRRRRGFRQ
Sequence of UniProt Q14973 (whole entry, looked up): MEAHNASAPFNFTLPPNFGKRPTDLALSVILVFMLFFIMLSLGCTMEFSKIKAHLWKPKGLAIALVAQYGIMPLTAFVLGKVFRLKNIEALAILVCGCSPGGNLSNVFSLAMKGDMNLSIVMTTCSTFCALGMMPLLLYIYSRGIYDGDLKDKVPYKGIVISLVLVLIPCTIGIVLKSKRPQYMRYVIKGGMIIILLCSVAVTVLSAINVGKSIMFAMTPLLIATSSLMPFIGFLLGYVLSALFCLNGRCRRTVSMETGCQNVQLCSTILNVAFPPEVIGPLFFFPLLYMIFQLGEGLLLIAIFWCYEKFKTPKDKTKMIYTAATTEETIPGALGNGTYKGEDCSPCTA
Sequence of UniProt Q00535 (whole entry, looked up): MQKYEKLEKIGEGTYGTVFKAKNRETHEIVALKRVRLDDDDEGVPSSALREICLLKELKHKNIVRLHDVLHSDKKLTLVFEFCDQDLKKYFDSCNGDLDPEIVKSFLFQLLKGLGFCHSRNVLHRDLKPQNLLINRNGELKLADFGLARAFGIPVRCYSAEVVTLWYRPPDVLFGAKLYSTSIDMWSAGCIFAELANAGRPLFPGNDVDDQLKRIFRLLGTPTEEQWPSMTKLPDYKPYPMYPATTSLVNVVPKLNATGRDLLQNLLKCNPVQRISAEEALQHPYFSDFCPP
Sequence of UniProt Q91WC9 (whole entry, looked up): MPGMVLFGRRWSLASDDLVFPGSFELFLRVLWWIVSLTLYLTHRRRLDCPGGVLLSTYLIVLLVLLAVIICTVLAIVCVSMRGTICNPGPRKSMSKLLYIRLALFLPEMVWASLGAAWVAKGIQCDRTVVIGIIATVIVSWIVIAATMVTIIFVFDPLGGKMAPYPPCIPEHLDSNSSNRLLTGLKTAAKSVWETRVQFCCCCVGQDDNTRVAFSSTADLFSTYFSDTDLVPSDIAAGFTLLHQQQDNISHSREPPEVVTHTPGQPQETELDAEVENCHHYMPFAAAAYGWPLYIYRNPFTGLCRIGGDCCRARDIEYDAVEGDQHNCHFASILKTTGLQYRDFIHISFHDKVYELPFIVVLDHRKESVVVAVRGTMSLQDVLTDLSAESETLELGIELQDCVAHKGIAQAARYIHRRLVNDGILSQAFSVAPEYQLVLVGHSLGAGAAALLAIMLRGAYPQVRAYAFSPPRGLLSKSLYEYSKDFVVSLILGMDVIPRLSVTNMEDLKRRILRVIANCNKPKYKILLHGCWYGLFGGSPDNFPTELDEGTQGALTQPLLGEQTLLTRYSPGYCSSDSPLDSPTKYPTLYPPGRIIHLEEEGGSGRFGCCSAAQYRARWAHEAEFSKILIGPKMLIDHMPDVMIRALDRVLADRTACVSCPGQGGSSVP

For `CN(C(=O)n1cnc(-c2ccc[n+]([O-])c2)c1)C1CCCCC1`, the inhibition was 18% (GABAA receptor chloride channel, rat; binding; 10 µM, with: [3H]TBOB).
`C[C@H]1O[C@H](O[C@H]2[C@H](O)[C@@H](O)[C@@H](O[C@H]3[C@H](O)[C@@H](O)C(O)O[C@@H]3CO)O[C@@H]2CO)[C@H](O)[C@@H](O)[C@@H]1N[C@H]1C=C(CO)[C@@H](O)[C@H](O)[C@H]1O` (stereo partly drawn) has an inhibition of 63.8% and 63.7% (MAL12; enzyme activity; 774.47 µM, with: pNPG).
For `COc1ccc2[nH]c3c(c2c1)CCN(C)CC3`, the inhibition was 78.8 ± 5.6% (Chrna7; ACh-evoked current, antagonist, two-electrode voltage clamp; Xenopus laevis oocytes; 10 µM, holding potential -120 mV, with: 100 µM acetylcholine).
For `O=C(N/N=C/c1ccccc1O)c1cnccn1`, inhibition read “no inhibition” (Gag-Pol polyprotein, integrase (gag-pol, Human immunodeficiency virus 1, UniProt P12497); processing, 3', and strand transfer, inhibitor; HIV-1; 100 µM).
With `Cn1cc(-c2cc(F)cc(N3CCn4c(cc5c4CCCC5)C3=O)c2CO)cc(Nc2ccc(N3CCN(C4COC4)CC3)cn2)c1=O` the inhibition was 12% (MAP3K7 with TAB1; kinase activity, inhibitor; 0.1 µM, SelectScreen profiling).
`O=C(O[C@@H]1Cc2c(O)cc(O)cc2O[C@@H]1c1cc(O)c(=O)c2c(O)c(O)cc([C@H]3Oc4cc(O)cc(O)c4C[C@H]3OC(=O)c3cc(O)c(O)c(O)c3)c2c1)c1cc(O)c(O)c(O)c1` — result for inhibition: “inhibited” (Protein disulfide-isomerase, a' domain (P4HB, Homo sapiens, UniProt P07237); di-eosin-GSSG reductase activity; isolated a' domain; 20 µM).
`CCc1cc(=O)[nH]c(-n2nc(C)cc2NC(=O)c2ccc(C)c(C)c2)n1`: inhibition “no inhibition” (Vascular endothelial growth factor receptor 2 (KDR, Homo sapiens, UniProt P35968); radiometric kinase; 10 µM).
`N=C(N)NC(=N)Nc1cccc(Cl)c1` gave an IC50 of 10 µM (Plasmodium falciparum; 7G8).
Under inhibition, `NNCCc1c[nH]c2ccccc12` is recorded as “inhibited” (Cytochrome b5 type B (CYB5B, Homo sapiens, UniProt O43169); MS-based ABPP-SILAC; HEK-293T lysate; 1 µM).
`CN1CCN(c2nc(N)c3ccccc3n2)CC1` has an inhibition of 3.3% (5-hydroxytryptamine receptor 1D (Htr1d, Rattus norvegicus, UniProt P28565); radioligand binding, radioligand competition binding; rat; 0.1 µM, mean of two; reference: control specific binding).
For `COCc1c(-c2cc3cc(C)cc(OC)c3s2)c2c(N)ncnn2c1CN1CCNC(=O)C1`, the inhibition was 3% (GABAA central benzodiazepine site; radioligand binding; 10 µM).
For `CN(CCN1CCC(OC(=O)Nc2ccccc2-c2ccccc2)CC1)C(=O)c1ccc(CN2CCC(C(N)=O)CC2)cc1`, the inhibition was 12% (bovine peripheral I1 site; radioligand binding; 1 µM, with: [3H]clonidine 15 nM).
For `O=c1ccc2ccccc2o1`, the inhibition was -2.02% (Neuronal acetylcholine receptor; alpha4/beta2 (Homo sapiens, UniProt P17787+P43681); agonist radioligand binding; 10 µM, SafetyScreen44).
Under inhibition, `O=C1OC(c2ccc(O)c(S(=O)(=O)O)c2)(c2ccc(O)c(S(=O)(=O)O)c2)c2c(Br)c(Br)c(Br)c(Br)c21` is recorded as “no effect” (Hepatic sodium/bile acid cotransporter (SLC10A1, Homo sapiens, UniProt Q14973); uptake, bile acid, sodium-independent, inhibitor; HepG2-hNTCP-C4; up to 100 µM, sodium-free, with: [3H]-taurocholic acid).
`O=C1O[C@H]2[C@@H]3OC(=O)c4cc(O)c(O)c(O)c4-c4c(O)c(O)c5oc(=O)c6c(c(O)c(O)c7oc(=O)c4c5c76)-c4c(cc(O)c(O)c4O)C(=O)OC[C@H]3OC(O)[C@@H]2OC(=O)c2cc(O)c(O)c(O)c2-c2c1cc(O)c(O)c2O` (mixture of isomers) — result for inhibition: “inhibited” (Protein disulfide-isomerase (P4HB, Homo sapiens, UniProt P07237); di-eosin-GSSG reductase activity; 20 µM, 15 min).
`Cc1ncc(C)n2nc(/C=C/c3nc(N4CCCC4)cc(N4CCOCC4)n3)nc12` gave an inhibition of 6% (Na+/K+-ATPase; enzyme activity; 10 µM).
The inhibition of `COc1ccc(N2C(=O)N(c3c(C)cccc3Cl)Cc3cnc(Nc4ccc(C5CCN(C)CC5)cc4OC)nc32)nc1` is reported as 0.105% (Dual specificity protein kinase CLK1 (CLK1, Homo sapiens, UniProt P49759); kinase activity; 0.5 µM).
For `O=C(Nc1cccnn1)N1CCN([C@@H]2CCOc3cc(C(F)(F)F)ccc32)CC1`, the inhibition was -1% (Na+/K+-ATPase; enzyme activity; 20 µM).
With `C#Cc1n[nH]c2c(-c3cn([C@@H](C)c4ccccc4)c(=O)[nH]c3=O)cc(F)cc12` the inhibition was -3% (MAP3K7 with TAB1; kinase activity, inhibitor; 100 nM).
For `CC(C)(C)OC(=O)N1CCN(C(=O)n2cc(-c3ccc(OC(F)(F)F)cc3)nn2)C(Cc2ccccc2)C1` (stereo not drawn), the inhibition was 88% (Diacylglycerol lipase-beta (Mus musculus, UniProt Q91WC9); enzyme activity; N2a membrane proteome; 30 nM).
With `CN1CCN(c2cc(-c3ccncc3)c(-c3ccc4ccccc4c3)nn2)CC1` the inhibition was 12% (Alpha-2C adrenergic receptor (ADRA2C, Homo sapiens, UniProt P18825); antagonist, FLIPR; 10 µM).
For `Cn1cccc1-c1cccnc1`, the inhibition was -4.51% (Muscarinic acetylcholine receptor M4 (CHRM4, Homo sapiens, UniProt P08173); binding; 50 µM).
`CC[C@H](C)[C@H](NC(=O)[C@@H](NC(=O)[C@H](N)Cc1ccccc1)C(C)C)C(=O)N[C@@H](C)C(N)=O` gave an inhibition of 96% (Amyloid-beta precursor protein (APP, Homo sapiens, UniProt P05067); amyloid-beta aggregation, thioflavin T fluorescence; 2.0 µM, 72 h, with: 2 µM amyloid-beta).
`CCc1ccc(N2C(=O)/C(=C3/C(=O)N(C)c4ccc(Cl)cc43)NC2=S)cc1` has an inhibition of 61.8% and 61.9% (MAL12; enzyme activity; 200 µM, with: pNPG).
`O=C(Nc1cccnn1)N1CCC(=Cc2cccc(Oc3ccc(C(F)(F)F)cn3)c2)CC1` gave an inhibition of 5% (B2 bradykinin receptor (BDKRB2, Homo sapiens, UniProt P30411); binding; 50 µM, with: [3H]bradykinin).
`COC(=O)[C@H]1[C@H]2C[C@@H]3c4[nH]c5cc(OC)ccc5c4CCN3C[C@H]2C[C@@H](OC(=O)c2cc(OC)c(OC)c(OC)c2)[C@@H]1OC` gave an IC50 of 2.51 µM (Plasmodium falciparum; Dd2).
`CN1C(=O)/C(=N\Nc2ncc(-c3cc4ccccc4oc3=O)s2)c2cc(Cl)ccc21` has an inhibition of 17.1% and 17.3% (MAL12; enzyme activity; 25 µM, with: pNPG).
For `COc1ccc(CCC2CCCC(CCc3ccc(OC)cc3)N2C[C@@H](O)CO)cc1.Cl` (stereo in doubt), the inhibition was ~20% (Chrna7; [3H]methyllycaconitine binding; 30 µM).
Under inhibition, `N#C/C(=C\c1ccc(O)c(O)c1)C(N)=S` is recorded as “inhibited” (Coagulation factor XIII A chain (F13A1, Homo sapiens, UniProt P00488); crosslinking activity; 15 µM, without DTT).
The inhibition of `O=C(Nc1cnccc1Cl)N1CCN(Cc2ccc3c(c2)OC(F)(F)O3)CC1` is reported as 99% (Abhydrolase domain-containing protein 11 (Rattus norvegicus, UniProt D3ZXK4); probe labelling, inhibitor, competitive ABPP with azido-FP probe, measured: Abhd11; rat brain membrane fraction; 10 µM).
The inhibition of `FC(F)(F)c1cccc(Nc2nc(NCCOc3ccccc3)nc3[nH]cnc23)c1` is reported as 8% (Cyclin-dependent kinase 5, with p25 (CDK5, Homo sapiens, UniProt Q00535); enzyme activity, inhibitor, Thermo Fisher kinase screening; 5 µM).
`COc1cc(Nc2ncc(F)c(Nc3ccc4c(n3)NC(=O)C(C)(C)O4)n2)cc(OC)c1OC` has an inhibition of 100% (Platelet-derived growth factor receptor beta (PDGFRB, Homo sapiens, UniProt P09619); KINOMEscan; 10 µM).
`CC(C)N1CCC[C@H]1CNC(=O)c1cn(C2CCCC2)c(=O)c2c1c1ccccc1n2C` has an inhibition of 1% (NMDA receptor agonist site, rat; radioligand binding; 10 µM).
